Results gathered from unrelated publications.
Parts stem from different laboratories: compare values within a part only.
Chain of UniProt Q9UHD2 (whole entry, looked up): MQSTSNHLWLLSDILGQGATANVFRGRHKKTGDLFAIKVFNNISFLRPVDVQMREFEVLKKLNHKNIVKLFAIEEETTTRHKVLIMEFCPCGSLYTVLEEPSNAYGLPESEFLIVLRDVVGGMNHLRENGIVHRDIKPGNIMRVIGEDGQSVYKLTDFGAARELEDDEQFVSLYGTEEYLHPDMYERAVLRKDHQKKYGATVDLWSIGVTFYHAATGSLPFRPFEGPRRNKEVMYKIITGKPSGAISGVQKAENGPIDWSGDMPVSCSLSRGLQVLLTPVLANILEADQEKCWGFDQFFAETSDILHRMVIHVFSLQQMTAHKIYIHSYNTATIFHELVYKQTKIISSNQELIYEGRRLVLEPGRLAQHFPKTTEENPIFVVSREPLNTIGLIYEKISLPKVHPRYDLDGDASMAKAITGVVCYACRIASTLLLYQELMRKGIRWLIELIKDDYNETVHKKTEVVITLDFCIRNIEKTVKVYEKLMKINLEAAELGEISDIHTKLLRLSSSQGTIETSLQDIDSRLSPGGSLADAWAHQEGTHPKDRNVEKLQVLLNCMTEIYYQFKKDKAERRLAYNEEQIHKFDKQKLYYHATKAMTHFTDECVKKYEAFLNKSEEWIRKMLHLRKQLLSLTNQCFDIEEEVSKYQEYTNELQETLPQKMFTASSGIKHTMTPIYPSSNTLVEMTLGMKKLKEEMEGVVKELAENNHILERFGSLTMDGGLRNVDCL
Chain of UniProt P49137 (whole entry, looked up): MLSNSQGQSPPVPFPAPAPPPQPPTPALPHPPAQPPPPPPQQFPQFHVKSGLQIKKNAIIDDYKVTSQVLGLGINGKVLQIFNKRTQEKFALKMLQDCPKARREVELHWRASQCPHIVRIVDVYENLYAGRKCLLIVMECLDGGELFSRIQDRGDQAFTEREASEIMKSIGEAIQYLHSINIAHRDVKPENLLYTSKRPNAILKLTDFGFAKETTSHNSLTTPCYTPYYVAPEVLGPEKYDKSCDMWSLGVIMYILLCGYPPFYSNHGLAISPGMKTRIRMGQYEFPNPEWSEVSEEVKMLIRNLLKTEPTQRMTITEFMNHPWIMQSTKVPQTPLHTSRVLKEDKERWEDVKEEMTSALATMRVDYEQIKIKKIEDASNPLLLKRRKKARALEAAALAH
Chain of UniProt O15146 (whole entry, looked up): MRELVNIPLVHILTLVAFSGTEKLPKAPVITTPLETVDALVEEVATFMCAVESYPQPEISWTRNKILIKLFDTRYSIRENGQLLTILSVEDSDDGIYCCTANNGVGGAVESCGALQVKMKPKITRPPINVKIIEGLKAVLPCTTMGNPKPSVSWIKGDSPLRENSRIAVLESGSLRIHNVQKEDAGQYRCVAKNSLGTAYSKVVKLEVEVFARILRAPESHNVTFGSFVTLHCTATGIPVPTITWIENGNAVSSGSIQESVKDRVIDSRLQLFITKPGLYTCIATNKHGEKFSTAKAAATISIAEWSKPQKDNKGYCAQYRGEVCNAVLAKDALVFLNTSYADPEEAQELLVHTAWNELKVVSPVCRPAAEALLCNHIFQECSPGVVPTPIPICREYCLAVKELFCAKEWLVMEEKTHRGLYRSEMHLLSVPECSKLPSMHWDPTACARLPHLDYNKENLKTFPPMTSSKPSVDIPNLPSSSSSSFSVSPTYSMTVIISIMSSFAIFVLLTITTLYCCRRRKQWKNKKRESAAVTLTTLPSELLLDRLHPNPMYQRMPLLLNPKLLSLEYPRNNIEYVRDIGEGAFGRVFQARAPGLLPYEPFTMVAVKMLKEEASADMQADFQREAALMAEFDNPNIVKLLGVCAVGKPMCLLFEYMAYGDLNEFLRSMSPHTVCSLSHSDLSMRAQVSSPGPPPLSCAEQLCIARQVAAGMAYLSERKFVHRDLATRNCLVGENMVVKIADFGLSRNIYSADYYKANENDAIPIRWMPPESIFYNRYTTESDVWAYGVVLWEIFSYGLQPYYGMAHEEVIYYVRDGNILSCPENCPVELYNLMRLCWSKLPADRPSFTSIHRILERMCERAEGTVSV
Chain of UniProt P36896 (whole entry, looked up): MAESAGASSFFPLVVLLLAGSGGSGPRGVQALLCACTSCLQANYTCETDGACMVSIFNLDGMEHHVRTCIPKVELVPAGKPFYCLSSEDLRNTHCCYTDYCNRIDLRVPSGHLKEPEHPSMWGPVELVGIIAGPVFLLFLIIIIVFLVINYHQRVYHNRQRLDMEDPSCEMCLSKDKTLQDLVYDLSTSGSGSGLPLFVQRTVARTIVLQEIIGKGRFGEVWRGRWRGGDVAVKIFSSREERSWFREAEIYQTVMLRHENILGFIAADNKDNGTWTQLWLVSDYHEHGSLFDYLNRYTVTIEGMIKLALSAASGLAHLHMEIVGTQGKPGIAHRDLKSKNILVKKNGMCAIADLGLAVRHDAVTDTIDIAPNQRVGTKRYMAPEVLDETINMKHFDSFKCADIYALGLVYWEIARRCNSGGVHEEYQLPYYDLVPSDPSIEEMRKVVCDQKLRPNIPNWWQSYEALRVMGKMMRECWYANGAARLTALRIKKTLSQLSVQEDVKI
Chain of UniProt Q8IYT8 (whole entry, looked up): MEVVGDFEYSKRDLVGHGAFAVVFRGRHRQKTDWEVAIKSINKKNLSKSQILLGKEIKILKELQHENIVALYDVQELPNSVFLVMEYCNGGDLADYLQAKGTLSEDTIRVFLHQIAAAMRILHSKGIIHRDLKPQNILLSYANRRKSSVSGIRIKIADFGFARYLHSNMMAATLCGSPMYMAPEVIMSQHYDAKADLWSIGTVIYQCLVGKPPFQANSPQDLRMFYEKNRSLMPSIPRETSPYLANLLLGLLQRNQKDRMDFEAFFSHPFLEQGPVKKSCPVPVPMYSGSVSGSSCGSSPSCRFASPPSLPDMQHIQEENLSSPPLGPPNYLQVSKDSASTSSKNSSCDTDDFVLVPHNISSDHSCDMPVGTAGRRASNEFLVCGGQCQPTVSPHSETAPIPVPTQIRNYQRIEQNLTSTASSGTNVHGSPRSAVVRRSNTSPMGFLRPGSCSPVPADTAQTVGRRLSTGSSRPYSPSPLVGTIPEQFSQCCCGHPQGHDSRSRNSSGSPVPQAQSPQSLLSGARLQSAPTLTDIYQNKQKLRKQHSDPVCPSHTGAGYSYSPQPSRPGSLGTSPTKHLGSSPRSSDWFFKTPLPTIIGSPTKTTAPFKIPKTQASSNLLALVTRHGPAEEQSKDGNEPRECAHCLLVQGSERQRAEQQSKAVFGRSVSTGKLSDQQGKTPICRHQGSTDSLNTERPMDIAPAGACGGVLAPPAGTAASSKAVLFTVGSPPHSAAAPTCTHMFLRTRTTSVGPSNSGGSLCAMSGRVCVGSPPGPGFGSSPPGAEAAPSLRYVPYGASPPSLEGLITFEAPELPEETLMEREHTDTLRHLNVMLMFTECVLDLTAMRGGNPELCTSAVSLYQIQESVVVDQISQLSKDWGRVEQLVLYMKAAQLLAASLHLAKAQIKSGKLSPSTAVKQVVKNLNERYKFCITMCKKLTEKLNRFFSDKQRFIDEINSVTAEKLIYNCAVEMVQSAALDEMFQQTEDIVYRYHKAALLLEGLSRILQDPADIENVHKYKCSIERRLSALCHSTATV
Chain of UniProt P11362 (whole entry, looked up): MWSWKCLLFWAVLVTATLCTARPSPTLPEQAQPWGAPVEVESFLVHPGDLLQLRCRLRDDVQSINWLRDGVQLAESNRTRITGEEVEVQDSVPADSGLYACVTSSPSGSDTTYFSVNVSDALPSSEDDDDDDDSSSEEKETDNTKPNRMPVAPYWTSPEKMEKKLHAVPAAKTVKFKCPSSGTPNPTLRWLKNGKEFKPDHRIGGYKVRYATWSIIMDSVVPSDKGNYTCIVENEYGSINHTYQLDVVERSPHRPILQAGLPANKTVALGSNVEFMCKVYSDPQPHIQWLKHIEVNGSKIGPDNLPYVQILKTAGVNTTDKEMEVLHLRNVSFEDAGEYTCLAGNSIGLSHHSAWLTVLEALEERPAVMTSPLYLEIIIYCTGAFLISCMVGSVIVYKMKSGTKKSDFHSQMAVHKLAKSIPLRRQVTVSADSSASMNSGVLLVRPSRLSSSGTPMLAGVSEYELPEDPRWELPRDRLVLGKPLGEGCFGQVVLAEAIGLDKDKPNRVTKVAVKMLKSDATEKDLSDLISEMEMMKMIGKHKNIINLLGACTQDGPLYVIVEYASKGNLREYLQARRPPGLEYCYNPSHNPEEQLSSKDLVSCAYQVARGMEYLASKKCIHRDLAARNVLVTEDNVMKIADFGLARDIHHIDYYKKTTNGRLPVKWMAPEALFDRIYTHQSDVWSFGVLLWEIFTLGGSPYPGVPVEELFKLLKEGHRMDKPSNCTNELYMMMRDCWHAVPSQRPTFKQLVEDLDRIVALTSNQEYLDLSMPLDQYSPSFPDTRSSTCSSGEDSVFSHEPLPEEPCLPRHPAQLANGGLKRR
Chain of UniProt Q8WTQ7 (whole entry, looked up): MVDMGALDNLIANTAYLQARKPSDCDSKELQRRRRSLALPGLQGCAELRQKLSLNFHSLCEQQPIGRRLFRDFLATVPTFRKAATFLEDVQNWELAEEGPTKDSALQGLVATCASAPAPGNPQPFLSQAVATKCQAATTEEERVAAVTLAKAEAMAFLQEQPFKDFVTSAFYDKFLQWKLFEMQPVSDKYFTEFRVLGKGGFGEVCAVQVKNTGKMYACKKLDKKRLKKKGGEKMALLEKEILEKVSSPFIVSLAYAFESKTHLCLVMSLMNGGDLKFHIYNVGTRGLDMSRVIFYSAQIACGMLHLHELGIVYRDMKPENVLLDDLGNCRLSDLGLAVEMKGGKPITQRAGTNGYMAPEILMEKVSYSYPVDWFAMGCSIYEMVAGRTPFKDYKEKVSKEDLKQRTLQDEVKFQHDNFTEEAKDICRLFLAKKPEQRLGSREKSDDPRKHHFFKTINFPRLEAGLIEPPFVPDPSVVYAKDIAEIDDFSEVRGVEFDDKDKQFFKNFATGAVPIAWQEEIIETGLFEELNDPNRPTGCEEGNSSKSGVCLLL

Series 1 — effect on: cell-free assay; technique: competition with immobilised ligand; concentration: 1 µM
Structure (SMILES): COc1cc(-c2cn(C3CCc4ccccc4N(CC(F)(F)F)C3=O)nn2)ccc1-n1ccc(C)n1 (centres unmarked)
| target | remaining binding |
| --- | --- |
| Muscle, skeletal receptor tyrosine-protein kinase (MUSK, Homo sapiens, UniProt O15146) | 99% |
| Eukaryotic translation initiation factor 2-alpha kinase 1 (EIF2AK1, Homo sapiens, UniProt Q9BQI3) | 93% |
| Serine/threonine-protein kinase PLK4 (PLK4, Homo sapiens, UniProt O00444) | 73% |

Series 2 — technique: competition protein-binding microarray; form: double-stranded DNA, one strand shown; medium: in vitro; concentration: 2 µM; together with: Cbf1 competitor, 0.05 µM; direction: higher = stronger binding; constant ends, left off below: … GTCTTGATTCGCTTGACGCTGCTG
Target: Phosphate system positive regulatory protein PHO4, full length, GST-tagged (PHO4, Saccharomyces cerevisiae, UniProt P07270, residues 1-312)
Notes: whole 60-bp probe, lowest competitor level
Construct (chain): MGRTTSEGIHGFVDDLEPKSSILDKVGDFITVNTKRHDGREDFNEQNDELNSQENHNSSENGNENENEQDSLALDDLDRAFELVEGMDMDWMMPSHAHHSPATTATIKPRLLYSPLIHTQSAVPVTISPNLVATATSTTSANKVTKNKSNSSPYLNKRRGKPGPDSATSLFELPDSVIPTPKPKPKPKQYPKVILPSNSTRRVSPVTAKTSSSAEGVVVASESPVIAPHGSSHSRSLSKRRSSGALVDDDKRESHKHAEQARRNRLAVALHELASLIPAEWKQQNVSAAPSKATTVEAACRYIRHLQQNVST
| Strand | fluorescence intensity [a.u.] |
| --- | --- |
| AGTCGTCGTCCGGGACATAGGATCAGGAATCACAAT | 3320 |
| AAGTTCCACAAGGTGCTCGTGTTGACACTGAAAAGT | 11100 |
| CGACCCAAATAGTTAAACGTGTGGATTATGGGTGCA | 10800 |
| TATGTAAAAAATCCGCACGTTGCCAGATACATACCG | 12300 |
| CTTTCCCGATCTTGGTACGTGGGTGTAGCACATTTG | 8060 |
| TTCCAACTGTTTTTGCACGCAAATTCGTCCAACCGG | 4380 |
| CTTCTGTAAATTTGTCACCTAACTTGACGCGCCCCG | 3140 |
| GTATTCTCGGATCGGCACGCAAGCGCAATGCTGAGA | 7890 |

Series 3 — effect on: enzyme activity; action: inhibitor; concentration: 0.5 µM; reference: control
Compound: O=C1NC(=O)C(c2c[nH]c3ccccc23)=C1c1c[nH]c2ccccc12
| target | remaining activity |
| --- | --- |
| Activin receptor type-1B (ACVR1B, Homo sapiens, UniProt P36896) | 112% |
| Serine/threonine-protein kinase TBK1 (TBK1, Homo sapiens, UniProt Q9UHD2) | 84% |
| Ribosomal protein S6 kinase alpha-2 (RPS6KA2, Homo sapiens, UniProt Q15349) | 11.5% |
| Rhodopsin kinase GRK7 (GRK7, Homo sapiens, UniProt Q8WTQ7) | 91.8% |
| Ephrin type-A receptor 3 (EPHA3, Homo sapiens, UniProt P29320) | 95.1% |
| Serine/threonine-protein kinase ULK2 (ULK2, Homo sapiens, UniProt Q8IYT8) | 92.9% |
| Dual specificity mitogen-activated protein kinase kinase 2 (MAP2K2, Homo sapiens, UniProt P36507) | 82.7% |
| Fibroblast growth factor receptor 3 (FGFR3, Homo sapiens, UniProt P22607) | 70.7% |
| Macrophage-stimulating protein receptor (MST1R, Homo sapiens, UniProt Q04912) | 93.1% |
| Mitogen-activated protein kinase 3 (MAPK3, Homo sapiens, UniProt P27361) | 105% |
| MAP kinase-activated protein kinase 2 (MAPKAPK2, Homo sapiens, UniProt P49137) | 95.6% |
| Fibroblast growth factor receptor 1 (FGFR1, Homo sapiens, UniProt P11362) | 41.4% |
| Tyrosine-protein kinase Mer (MERTK, Homo sapiens, UniProt Q12866) | 86.1% |

Series 4 — technique: protein-binding microarray; form: double-stranded DNA, one strand shown; medium: in vitro; concentration: not given; direction: higher = stronger binding
Target: Myc proto-oncogene protein, bHLH-zipper, MAX partner unstated (MYC, Homo sapiens, UniProt P01106, residues 368-449)
Chain of UniProt P01106 (368-449, looked up): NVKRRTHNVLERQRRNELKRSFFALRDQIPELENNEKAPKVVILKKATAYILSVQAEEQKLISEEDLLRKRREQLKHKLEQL
Notes: k-mer, scored over probes, only values ≥0.25
| Strand | E-score |
| --- | --- |
| ATGTGGTC | 0.366 |
| ACACATGG | 0.469 |
| CACGCATC | 0.39 |
| AACACGCG | 0.441 |
| CCACGCGA | 0.431 |
| AGGCGCGG | 0.314 |
| ACATGAGA | 0.272 |
| CATGGGAC | 0.333 |
